Measured values from different studies.
Protocols differ between the studies behind these lines. In brackets after ≈: the same amount, converted by molar mass.
4'-phosphopantetheinyl transferase PptT: 4'-phosphopantetheinyl transferase PptT (Mycobacterium tuberculosis, UniProt O33336)
CNR2: Cannabinoid receptor 2 (CNR2, Homo sapiens, UniProt P34972)
HTR1F: 5-hydroxytryptamine receptor 1F (HTR1F, Homo sapiens, UniProt P30939)
HLA class I histocompatibility antigen, A alpha chain: HLA class I histocompatibility antigen, A alpha chain (Homo sapiens, UniProt P04439)
OPRK1: Kappa-type opioid receptor (OPRK1, Homo sapiens, UniProt P41145)
CAMK1G: Calcium/calmodulin-dependent protein kinase type 1G (CAMK1G, Homo sapiens, UniProt Q96NX5)

CN(C)Cc1cc2[nH]c(=S)n(Cc3cccnc3)c(=O)c2cc1Cl  IC50 (4'-phosphopantetheinyl transferase PptT; enzyme activity, inhibitor, FP): > 100000 nM
CC(N)C(=O)c1cccc(Cl)c1 (stereo not shown)  IC50 (Slc6a4 (Rattus norvegicus, UniProt P31652); transporter uptake, inhibitor, radiometric): 2780 nM
C[C@@]12CC[C@H](O)C[C@@H]1CC[C@H]1[C@H]2CC[C@@]2(C)C(=O)CC[C@H]12  EC50 (CNR2; cAMP, agonist): 2860 nM
CN1CCC(C(=O)c2cccc(NC(=O)c3c(F)cc(F)cc3F)n2)CC1  EC50 (HTR1F; G protein activation, agonist, BRET): 17.7 nM
CCCc1cc(O)c2c(c1)OC(C)(C)[C@@H]1CCC(C)=C[C@@H]21  Ki (CNR2; ligand displacement, radioligand; cell membranes): 47 nM
CC(C)C[C@H](NC(=O)[C@@H](NC(=O)[C@H](Cc1c[nH]cn1)NC(=O)[C@H](CC(=O)O)NC(=O)[C@H](CC(N)=O)NC(=O)[C@H](CCC(N)=O)NC(=O)[C@H](C)N)C(C)C)C(=O)N[C@@H](Cc1ccc(O)cc1)C(=O)N[C@@H](Cc1ccc(O)cc1)C(=O)O  IC50 (HLA class I histocompatibility antigen, A alpha chain; cell-free assay): 17 nM
CS(=O)(=O)c1ccc(C(=O)N[C@H]2CC[C@@]3(O)[C@H]4Cc5ccc(O)c6c5[C@@]3(CCN4CC3CC3)[C@H]2O6)s1  Ki (OPRK1; ligand displacement, radioligand; cell membranes): 5.47 nM
COC(=O)/C=C/C(=O)N[C@@H]1CC[C@@]2(O)[C@H]3Cc4ccc(O)c5c4[C@@]2(CCN3CC2CC2)[C@H]1O5  IC50 (Oprm1 (Rattus norvegicus, UniProt P33535, K303E); ligand displacement, radioligand; cell membranes): 10.2 nM
C/C=C1/CN2CC[C@]34C(=C(C(=O)OC)[C@H]1C[C@H]23)Nc1ccc(I)cc14  Ki (OPRK1; ligand displacement, radioligand; cell membranes): 2.4 nM
N.N.[Cl][Pt][Cl]  IC50 (Toledo; cell growth or viability, ATP luminescence; 72 h): 810 nM
CC(=O)OCc1cc2[nH]c(=S)n(Cc3cccnc3)c(=O)c2cc1Cl  IC50 (4'-phosphopantetheinyl transferase PptT; enzyme activity, inhibitor, FP): > 100000 nM
CC(C)C[C@@H]1NC(=O)[C@@H](CCCNC(=N)N)NC(=O)[C@@H](Cc2ccc(O)cc2)NC(=O)[C@H]2CCCN2C(=O)[C@H](CC(C)C)NC(=O)[C@H](CC(C)C)NC(=O)[C@@H]2CCCN2C(=O)[C@H]([C@@H](C)O)NC(=O)[C@H]([C@@H](C)O)NC(=O)CNC(=O)CNC1=O  thermodynamic solubility (aqueous buffer; 18 h, pH 7.4): 607 µM (≈ 710 µg/mL)
COCCC(c1cccnc1)n1c(=S)[nH]c2ccc(Cl)cc2c1=O (stereo not shown)  IC50 (4'-phosphopantetheinyl transferase PptT; enzyme activity, inhibitor, FP): 2600 nM
CNC(C)C(=O)c1ccccc1 (racemic)  EC50 (SLC6A2 (Homo sapiens, UniProt P23975); calcium signal, agonist, fluorescence): 182 nM
O=C(N[C@H]1CC[C@@]2(O)[C@H]3Cc4ccc(O)c5c4[C@@]2(CCN3CC2CC2)[C@H]1O5)c1ccc(Cl)s1  Ki (OPRK1; ligand displacement, radioligand; cell membranes): 1.51 nM
O=c1c2cc(Cl)ccc2[nH]c(=S)n1Cc1ccc(-c2nnn[nH]2)nc1  IC50 (4'-phosphopantetheinyl transferase PptT; enzyme activity, inhibitor, FP): 140 nM
CSCC[C@H](NC(=O)[C@H](CCC(N)=O)NC(=O)[C@H](Cc1c[nH]cn1)NC(=O)[C@@H]1CCCN1C(=O)[C@H](Cc1ccccc1)NC(=O)[C@H](CCC(N)=O)NC(=O)[C@@H](N)Cc1ccccc1)C(=O)N[C@H](C(=O)N[C@@H](Cc1ccccc1)C(=O)O)[C@@H](C)O  IC50 (HLA class I histocompatibility antigen, A alpha chain; cell-free assay): 10700 nM
O=c1c2cc(Cl)ccc2[nH]c(=S)n1Cc1cc[nH]n1  IC50 (4'-phosphopantetheinyl transferase PptT; enzyme activity, inhibitor, FP): 6850 nM
Cc1nn(C)cc1-c1nc2c(N3CCN(Cc4ccc(Cl)cc4)CC3)c(Cl)cnc2[nH]1  remaining binding (TNNI3K (Homo sapiens, UniProt Q59H18); binding, competition with immobilised ligand; 1 µM): 93%
CC[C@H](C)[C@@H]([C@@H](CC(=O)N1CCC[C@H]1[C@H](OC)[C@@H](C)C(=O)N[C@H](C)[C@@H](O)c1ccccc1)OC)N(C)C(=O)[C@@H](NC(=O)[C@H](C(C)C)N(C)C(=O)OCc1ccc(NC(=O)[C@H](CCCNC(N)=O)NC(=O)[C@@H](NC(=O)CCCCCN2C(=O)CC(SCCC(=O)N[C@@H](Cc3cn(CCOCCNCCCCCCOc4cc(OCCCc5c(C)n[nH]c5C)cc(C(=O)O)c4)nn3)C(=O)NCCCCCC(=O)NCCCC[C@H](NC(=O)N[C@@H](CCC(=O)O)C(=O)O)C(=O)O)C2=O)C(C)C)cc1)C(C)C (stereo partly shown)  solubility (PBS; pH 7.4): ≥ 200 µM
COc1cc(CCNC(C)c2ccccc2O)c(OC)cc1C#N (single isomer, unassigned; (+))  EC50 (HTR2B (Homo sapiens, UniProt P41595); G protein activation, agonist, BRET): 8500 nM
CCCc1cc(O)c2c(c1)OC(C)(CCC=C(C)C)C=C2 (stereo not shown)  Ki (CNR2; ligand displacement, radioligand; cell membranes): 1390 nM
COc1ncccc1-c1cnn2ccc(N3CCN(C(=O)OC(C)C)CC3)nc12  remaining binding (CAMK1G; binding, competition with immobilised ligand; 1 µM): 82%
[2H]c1c([2H])c([C@]2([2H])CCCN2C(=O)C(C)(C)Oc2ccc3cn[nH]c3c2)c([2H])c([2H])c1C([2H])([2H])[2H]  remaining binding (MARK1 (Homo sapiens, UniProt Q9P0L2); binding, competition with immobilised ligand; 1 µM): 82%
O=c1c2cc(Br)ccc2[nH]c(=S)n1Cc1cccnc1  IC50 (4'-phosphopantetheinyl transferase PptT; enzyme activity, inhibitor, FP): 670 nM
CC[C@@H](CO)NC(=O)[C@@H]1C=C2c3cccc4[nH]cc(c34)C[C@H]2N(C)C1  EC50 (HTR1F; G protein activation, agonist, BRET): 5.21 nM
O=c1c2cc(Cl)ccc2[nH]c(=S)n1Cc1cccnc1  IC50 (4'-phosphopantetheinyl transferase PptT; enzyme activity, inhibitor, FP): 370 nM
CS(=O)(=O)c1ccc2nc(-c3ccccc3)c(Nc3ccc(C(=O)O)cc3)n2c1  IC50 (TDP1 (Homo sapiens, UniProt Q9NUW8); enzyme activity, inhibitor, fluorescence; lysate): 38400 nM
O=C(N[C@H]1CC[C@@]2(O)[C@H]3Cc4ccc(O)c5c4[C@@]2(CCN3CC2CC2)[C@H]1O5)c1ccc([N+](=O)[O-])s1  Ki (OPRK1; ligand displacement, radioligand; cell membranes): 2.49 nM
Nc1ncc(-c2nc(N3CCOCC3)nc(N3CCOCC3)n2)c(C(F)F)n1  remaining binding (CAMK1G; binding, competition with immobilised ligand; 10 µM): 65%
Oc1ccc2c3c1O[C@H]1c4oc5ccccc5c4C[C@@]4(O)[C@@H](C2)N(CC2CC2)CC[C@]314  EC50 (Trpm7 (Mus musculus, UniProt Q923J1); calcium signal, agonist): 49800 nM

For quick reference, copied from above:
CN(C)Cc1cc2[nH]c(=S)n(Cc3cccnc3)c(=O)c2cc1Cl  IC50 (4'-phosphopantetheinyl transferase PptT; enzyme activity, inhibitor, FP): > 100000 nM
C/C=C1/CN2CC[C@]34C(=C(C(=O)OC)[C@H]1C[C@H]23)Nc1ccc(I)cc14  Ki (OPRK1; ligand displacement, radioligand; cell membranes): 2.4 nM
O=c1c2cc(Cl)ccc2[nH]c(=S)n1Cc1cccnc1  IC50 (4'-phosphopantetheinyl transferase PptT; enzyme activity, inhibitor, FP): 370 nM
Oc1ccc2c3c1O[C@H]1c4oc5ccccc5c4C[C@@]4(O)[C@@H](C2)N(CC2CC2)CC[C@]314  EC50 (Trpm7 (Mus musculus, UniProt Q923J1); calcium signal, agonist): 49800 nM
CC[C@@H](CO)NC(=O)[C@@H]1C=C2c3cccc4[nH]cc(c34)C[C@H]2N(C)C1  EC50 (HTR1F; G protein activation, agonist, BRET): 5.21 nM
